# Results from different studies.
# Protocols differ between the studies behind these lines. Values joined by “and” are separate records of one study, mostly repeats; a detail may differ.
# Target: Tyrosine-protein kinase ABL2 (ABL2, Homo sapiens, UniProt P42684)
Structure (SMILES),assay,conditions,how to read,endpoint,result
C=CC(=O)N1Cc2nc(-c3cc(-c4cc(Cl)cnc4Cl)c(F)cc3F)n(-c3ccncn3)c2C1,"cell-free assay, inhibitor",1 µM,,inhibition,10.2%
COCC12C(=O)NC3C4(C(OC)CC1O)C1CC5(O)C(OC)C(O)C(OC(C)=O)(C1C5OC(=O)c1ccccc1)C3(O)C(OC)C24 (stereo not shown),"kinase activity, inhibitor, ProQinase kinase profiling",25 µM,relative to: control,remaining activity,108% and 102%
CNC(=O)C[C@H](Cc1ccc(C#N)cc1)NC(=O)c1cc(-c2ccc(CN[C@H](C)c3ccc(C)cc3)o2)ccc1Cl,"enzyme activity, inhibitor",1 µM,,activity vs control,86%
C=CC(=O)Nc1cccc(-c2cnc3[nH]cc(C(=O)NC(C)(C)C)c3n2)c1,kinase activity,0.1 µM,,inhibition,10% and 11%
CCN1CCN(Cc2ccc(C(=O)Nc3ccc(C)c(NCc4cnc5[nH]ccc5c4OC)c3)cc2C(F)(F)F)CC1,"binding, competition with immobilised ligand",1 µM,,remaining binding,0.55%
O=c1c(-c2ccc(Cl)c(CN3CCOCC3)c2)coc2cc(O)ccc12,"enzyme activity, inhibitor",1 µM,,remaining activity,96%
O=C(Cc1ccc(OCc2ccccc2)cc1)NC1(C(=O)O)CCN(C(=O)c2ccc(-c3cccc(Cl)c3)cc2)CC1,"enzyme activity, inhibitor",10 µM,,activity vs control,131%
COc1cc(Nc2nccc(-c3cnn4nc(OC)ccc34)n2)cc(C(F)(F)F)c1,"binding, competition with immobilised ligand",1 µM,,remaining binding,100%
O=C(Nc1ccc(Oc2ncnc3[nH]cc(-c4ccccc4)c23)c(F)c1)c1c2n(n(-c3cc(F)ccc3F)c1=O)CCCC2,"enzyme activity, inhibitor",0.5 µM,,inhibition,10%
CC(C)=CC1OC(C)(C)C2C=C3C(=O)C(Cl)=CC(O)C3C3C(O)C4OC4C(=O)C132 (stereo not shown),"cell-free assay, competition with immobilised ligand",10 µM,,remaining binding,91%
C=CC(=O)N1CCCC(n2c(=O)c3ncccc3n(Cc3ccc(Oc4ccccc4)cc3)c2=O)C1 (stereo not shown),"cell-free assay, competition with immobilised ligand",1 µM,,remaining binding,83%
CCn1cc(C(=O)O)c(=O)c2c(N)c(F)c(NC3CCCCC3)cc21,kinase activity,"0.1 µM, together with: ATP at Km",,inhibition,-29.9%
Cc1cccc(O[C@H]2CCC[C@@H](C(C)CNCc3ccncc3)C2)c1 (relative stereo),"enzyme activity, inhibitor",1 µM,,inhibition,-6%
Cc1ccc(C(=O)Nc2cccc(C(F)(F)F)c2)cc1Nc1cncc(C(N)=O)c1,"binding, competition with immobilised ligand",1 µM,,remaining binding,21%
NC(=O)[C@@H](O)C[C@H]1CCc2sc3ncnc(O[C@H]4CC[C@H](N5CCOCC5)CC4)c3c21,"enzyme activity, inhibitor",10 µM,,inhibition,21%
O=C=[N][Ru-4]123([n]4c5ccc(O)cc5c5c6c(c7cc(F)c[n+]1c7c54)C(=O)NC6=O)[S+]1CC[S+]2CC[S+]3CC1 (stereo not shown),enzyme activity,"100 nM, human enzyme, together with: 10 µM ATP",relative to: untreated,remaining activity,93%

# Some of these lines once more:
Structure (SMILES),assay,conditions,how to read,endpoint,result
CCN1CCN(Cc2ccc(C(=O)Nc3ccc(C)c(NCc4cnc5[nH]ccc5c4OC)c3)cc2C(F)(F)F)CC1,"binding, competition with immobilised ligand",1 µM,,remaining binding,0.55%
O=c1c(-c2ccc(Cl)c(CN3CCOCC3)c2)coc2cc(O)ccc12,"enzyme activity, inhibitor",1 µM,,remaining activity,96%
